{"data": "Measurements pooled from the literature", "note": "Numbered parts are unrelated; each lists some results of a single study. Changes are numbered by the printed parent chain."}
{"data": "Set 1", "target": "CCND3, cyclin fold, Cln2 fusion (human)", "method": "yeast growth competition, sequencing", "matrix": "yeast", "notes": "weak parent motif", "reference": "not given", "reading": "higher = stronger binding", "starting sequence": "PKN2 docking peptide (human); VSAVQKLDFSDTM"}
{"Substitution": "S10F", "normalised enrichment score": 0.0429}
{"Substitution": "V4Q", "normalised enrichment score": 0.0541}
{"Substitution": "L7R", "normalised enrichment score": 0.139}
{"Substitution": "A3E", "normalised enrichment score": 0.0381}
{"data": "Set 2", "target": "RING finger protein unkempt homolog, zinc fingers 1-6, GST-SBP tag (UNK, Homo sapiens, UniProt Q9C0B0, residues 30-357)", "method": "RNA Bind-n-Seq", "form": "RNA", "matrix": "in vitro", "tested at": "not given", "notes": "RNA with constant flanks, human-mouse chimeric sites, ends assumed", "reference": "input RNA pool", "reading": "higher = stronger binding", "constant ends, left off below": "GGGAGUUCUACAGUCCGACGAUC … CAACAGAGGAUUGAGCAUCA", "Construct (chain)": "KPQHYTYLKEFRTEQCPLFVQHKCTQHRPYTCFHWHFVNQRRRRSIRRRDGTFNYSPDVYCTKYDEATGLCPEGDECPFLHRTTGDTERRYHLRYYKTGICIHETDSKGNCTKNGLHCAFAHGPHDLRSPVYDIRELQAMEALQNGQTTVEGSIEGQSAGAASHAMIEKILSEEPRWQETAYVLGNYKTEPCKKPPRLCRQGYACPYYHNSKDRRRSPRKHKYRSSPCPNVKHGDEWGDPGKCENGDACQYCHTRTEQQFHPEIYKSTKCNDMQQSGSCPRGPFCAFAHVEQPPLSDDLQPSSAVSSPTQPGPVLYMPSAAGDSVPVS"}
{"Sequence": "GAGUCGAGCAAACUUGAAACAAUUCGUUUUACAAAAACCUCAGUGUUUUUACUUGCCGCGAUAGCAUUGGGGUUUUAUAGGUUCUGGAAGGAGAACUGACGAUGAUGCUGCCGCUGCUGC", "bound/input enrichment [ratio]": 0.456}
{"Sequence": "UCGGAUGAGGUGCUGGGUCACUUUUCAUAUCCAGAUCCUUCACAGUGGACAGAUGAAGAACUGGGAAUCCCUCCUGAUGAUGAAGACUGACACUGUAAACUCUCUGGACGAGUAGGAGCA", "bound/input enrichment [ratio]": 0.538}
{"Sequence": "CACACCCUCUUCUGCGGCACCCUCAUUUUGCAGGCCCGGGCCUAUGUGGGACCGCACGUCCUGGCAGUGGUGACCCGCACAGGGUUCUGCACGGCAAAAGGGGGCCUGGUGAGCUCCAUC", "bound/input enrichment [ratio]": 0.144}
{"Sequence": "CUGUGACCACAAGAUCCUACCUGAGUGGCAGCUGAAGUUGACUCCCUCUCCUUGCCUGCCUAGUUUCCCACUGCCCCCCCAUCCCCCGCAGAAUUCCGAGAUGUUGCCUCUGCACGGUUC", "bound/input enrichment [ratio]": 1.18}
{"Sequence": "GUGCCCUUCUCGCUGCUGCGGAGCCCGAGCUGGGAACCAUUCCGGGACUGGUACCCUGCACACAGCCGCCUCUUCGAUCAAGCUUUCGGGCUGCCCCGGUUGCCCGAUGAGUGGUCGCAG", "bound/input enrichment [ratio]": 0.0444}
{"data": "Set 3", "target": "Centromere-binding protein 1, full length, His-tagged (CBF1, Saccharomyces cerevisiae, UniProt P17106, residues 1-351)", "method": "competition protein-binding microarray", "form": "double-stranded DNA, one strand shown", "matrix": "in vitro", "tested at": "2 µM", "notes": "whole 60-bp probe, lowest competitor level", "together with": "Pho4 competitor, 0.05 µM", "reading": "higher = stronger binding", "constant ends, left off below": "… GTCTTGATTCGCTTGACGCTGCTG", "chain of UniProt P17106 (whole entry, looked up)": "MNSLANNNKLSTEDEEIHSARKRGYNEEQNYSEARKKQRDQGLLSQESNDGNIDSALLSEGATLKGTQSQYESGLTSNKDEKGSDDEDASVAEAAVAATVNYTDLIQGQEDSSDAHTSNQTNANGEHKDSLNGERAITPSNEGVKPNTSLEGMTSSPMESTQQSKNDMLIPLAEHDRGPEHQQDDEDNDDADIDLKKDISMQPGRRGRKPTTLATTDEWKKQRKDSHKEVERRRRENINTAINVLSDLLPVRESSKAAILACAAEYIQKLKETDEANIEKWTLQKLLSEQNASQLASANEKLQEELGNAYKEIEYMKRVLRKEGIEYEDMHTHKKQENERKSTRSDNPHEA"}
{"Sequence": "CTCCAGAAATCGGGCCACATGACAAAGCCCGTAGAC", "fluorescence intensity [a.u.]": 221}
{"Sequence": "CATACCCAACCTTGGGTAGTGGGTGAAGATATTTGT", "fluorescence intensity [a.u.]": 58.4}
{"Sequence": "TGCACTTATTATTACTACGTGGTGAATTTTCTCTTT", "fluorescence intensity [a.u.]": 82.4}
{"Sequence": "CTTCTGTAAATTTGTCACAAGACTTGACGCGCCCCG", "fluorescence intensity [a.u.]": 143}
{"Sequence": "CTAACGAAGGTTTGTCACATGACTTACAAGCCAAGT", "fluorescence intensity [a.u.]": 2510}
{"Sequence": "CATATCAGTGGTAGCAACGTGGTCGCACTGAAGAAT", "fluorescence intensity [a.u.]": 102}
{"data": "Single results of other studies"}
{"Molecule": "PhoQ, residues 284 288 289 292 302 303 SQSLSM", "target": "PhoP, residues 12 14 15 18 19 LYHSL (Escherichia coli, UniProt P23836)", "assay": "Sort-seq, refers to: YFP reporter", "test system": "E. coli", "setting": "PhoQ-PhoP variant library, together with: 10 µM Mg2+", "scale": "reference: high Mg2+ state, higher = stronger signaling", "quantity": "fold induction", "value": 0.75}
{"note": "A few entries again (set 1):"}
{"Substitution": "S10F", "normalised enrichment score": 0.0429}
{"Substitution": "V4Q", "normalised enrichment score": 0.0541}
